# Results from different studies.
# Each numbered part is a random draw from the data of one study; scales do not carry over between parts.

# Sample 1
# Target: Ras GTPase-activating protein-binding protein 1, C-terminal RGG region (G3BP1, Homo sapiens, UniProt Q13283)
# Sequence of UniProt Q13283 (whole entry, looked up): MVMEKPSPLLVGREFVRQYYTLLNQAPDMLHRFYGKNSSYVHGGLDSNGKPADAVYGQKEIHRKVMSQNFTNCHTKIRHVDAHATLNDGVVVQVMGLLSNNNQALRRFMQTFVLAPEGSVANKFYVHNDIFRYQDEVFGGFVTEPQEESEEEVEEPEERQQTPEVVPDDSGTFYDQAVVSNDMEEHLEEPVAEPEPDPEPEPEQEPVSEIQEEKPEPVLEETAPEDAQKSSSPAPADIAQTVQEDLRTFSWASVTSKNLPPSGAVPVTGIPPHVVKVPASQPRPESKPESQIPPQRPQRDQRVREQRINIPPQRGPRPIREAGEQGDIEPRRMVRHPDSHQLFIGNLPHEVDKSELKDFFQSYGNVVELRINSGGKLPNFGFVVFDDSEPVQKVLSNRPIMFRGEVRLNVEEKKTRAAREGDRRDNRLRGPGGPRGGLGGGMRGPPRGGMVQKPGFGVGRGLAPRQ
# Technique: RNA Bind-n-Seq
# Form: RNA
# Sample: in vitro
# Concentration: 1 µM
# Setting: whole 134-nt RNA, ends assumed
# Added: 150 mM KCl
# Baseline: input library
# Direction: higher = stronger binding
# All sequences stand within: GGGAGUUCUACAGUCCGACGAUC … UGGAAUUCUCGGGUGUCAAGG
Oligonucleotide,log2 enrichment
ACCAUGCAGGUGGGCAUCUUUGGGAAGUGGGGCAAGGGGGGGAUAGGGAGGGGGGUAACACUUUGGGAACAGGUGUUCCCAGGUCGUUUC,2.19
CCUGUGCUACACAUCGUAUGUACCGAAUCGGGCCCCCCGGGGCCCCCCGGGGCCCCCCGGAAAGUAUUAUGUUACGCCGUUCGGAUCUGC,-1.92
CUCAAGUCCUGUGCUACACAUCGUAUGUACCGAAUCGGUUUUUUUGGUGGUGGAAAGUAUUAUGUUACGCCGUUCGGAUCUGCACUUCCA,-1.02
AGUCCUGUGCUACACAUCGUAUGUACCGAAUCGGAAAAGGGGAAAAGGGGAAAAGGGAAAGUAUUAUGUUACGCCGUUCGGAUCUGCACU,-0.432
UCCUCAAGUCCUGUGCUACACAUCGUAUGUACCGAAUCGGAGGAAAGGUGGAAAGUAUUAUGUUACGCCGUUCGGAUCUGCACUUCCAGC,-1.25
CAAGUCCUGUGCUACACAUCGUAUGUACCGAAUCAAAUUUAAAUUUAAAUUUAAAAAAGUAUUAUGUUACGCCGUUCGGAUCUGCACUUC,-1.97
UCCUGUGCUACACAUCGUAUGUACCGAAUCGGGGUUUUUUGGUUUUUUGGGUUUUUUGGAAAGUAUUAUGUUACGCCGUUCGGAUCUGCA,-0.684
UCAAGUCCUGUGCUACACAUCGUAUGUACCGAAUCGGUUGGGUUGGGGUUGGGGAAAGUAUUAUGUUACGCCGUUCGGAUCUGCACUUCC,0.549
AAGUCCUGUGCUACACAUCGUAUGUACCGAAUCGGGGCCCGGGGCCCGGGCCCGGGAAAGUAUUAUGUUACGCCGUUCGGAUCUGCACUU,-2.28
AGUCCUGUGCUACACAUCGUAUGUACCGAAUCAAAUUUUUUUAAACCCAAAUUUAAAAAAGUAUUAUGUUACGCCGUUCGGAUCUGCACU,-1.66
AAGUCCUGUGCUACACAUCGUAUGUACCGAAUCGGGUUUUGGUUUUGGUUUUGGGGAAAGUAUUAUGUUACGCCGUUCGGAUCUGCACUU,-1.5
CCUCAAGUCCUGUGCUACACAUCGUAUGUACCGAAUCGGGGAGGAGGGAGGGAAAGUAUUAUGUUACGCCGUUCGGAUCUGCACUUCCAG,0.597
CAAGUCCUGUGCUACACAUCGUAUGUACCGAAUCGGGGAAAGGAAAGGGAAAGGGGAAAGUAUUAUGUUACGCCGUUCGGAUCUGCACUU,-0.534
AAGUCCUGUGCUACACAUCGUAUGUACCGAAUCGGGGCCCGGGGCCCGGCCCGGGGAAAGUAUUAUGUUACGCCGUUCGGAUCUGCACUU,-2.11

# Sample 2
# Target: Histone acetyltransferase KAT6A, winged helix 2, GST fusion (KAT6A, Homo sapiens, UniProt Q92794, residues 85-181)
# Technique: protein binding microarray
# Form: double-stranded DNA, one strand shown
# Sample: in vitro
# Concentration: not given
# Setting: 8-mer, flanks averaged, mean of 2 arrays, mostly near background
# Baseline: not given
# Direction: higher = stronger binding
# Residues (chain): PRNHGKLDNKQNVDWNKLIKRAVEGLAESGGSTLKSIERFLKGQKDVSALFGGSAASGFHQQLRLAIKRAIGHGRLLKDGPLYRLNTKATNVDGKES
Oligonucleotide,E-score
ACATGCTG,-0.0777
CACACCGG,0.0983
AATCCGGA,0.142
AAATAACG,-0.0812
CACCTTAC,-0.0283
ATTCGCCG,0.318
GCCAAAAC,-0.0519
CGCGCGAA,0.0828
CCTTGCGA,0.0101
CTGAAATC,-0.0193
AACGACAA,0.164
CTTGCAAA,0.131
AATTAATT,0.15
ATCCGGCA,0.136
AGAGCAAG,0.139
GTCATATA,0.0209
CGTAATCA,0.106
ATGCGCAT,0.183

# Sample 3
# Target: Sal-like protein 4, full length isoform A (SALL4, Homo sapiens, UniProt Q9UJQ4, residues 1-1053)
# Sequence of UniProt Q9UJQ4 (whole entry, looked up): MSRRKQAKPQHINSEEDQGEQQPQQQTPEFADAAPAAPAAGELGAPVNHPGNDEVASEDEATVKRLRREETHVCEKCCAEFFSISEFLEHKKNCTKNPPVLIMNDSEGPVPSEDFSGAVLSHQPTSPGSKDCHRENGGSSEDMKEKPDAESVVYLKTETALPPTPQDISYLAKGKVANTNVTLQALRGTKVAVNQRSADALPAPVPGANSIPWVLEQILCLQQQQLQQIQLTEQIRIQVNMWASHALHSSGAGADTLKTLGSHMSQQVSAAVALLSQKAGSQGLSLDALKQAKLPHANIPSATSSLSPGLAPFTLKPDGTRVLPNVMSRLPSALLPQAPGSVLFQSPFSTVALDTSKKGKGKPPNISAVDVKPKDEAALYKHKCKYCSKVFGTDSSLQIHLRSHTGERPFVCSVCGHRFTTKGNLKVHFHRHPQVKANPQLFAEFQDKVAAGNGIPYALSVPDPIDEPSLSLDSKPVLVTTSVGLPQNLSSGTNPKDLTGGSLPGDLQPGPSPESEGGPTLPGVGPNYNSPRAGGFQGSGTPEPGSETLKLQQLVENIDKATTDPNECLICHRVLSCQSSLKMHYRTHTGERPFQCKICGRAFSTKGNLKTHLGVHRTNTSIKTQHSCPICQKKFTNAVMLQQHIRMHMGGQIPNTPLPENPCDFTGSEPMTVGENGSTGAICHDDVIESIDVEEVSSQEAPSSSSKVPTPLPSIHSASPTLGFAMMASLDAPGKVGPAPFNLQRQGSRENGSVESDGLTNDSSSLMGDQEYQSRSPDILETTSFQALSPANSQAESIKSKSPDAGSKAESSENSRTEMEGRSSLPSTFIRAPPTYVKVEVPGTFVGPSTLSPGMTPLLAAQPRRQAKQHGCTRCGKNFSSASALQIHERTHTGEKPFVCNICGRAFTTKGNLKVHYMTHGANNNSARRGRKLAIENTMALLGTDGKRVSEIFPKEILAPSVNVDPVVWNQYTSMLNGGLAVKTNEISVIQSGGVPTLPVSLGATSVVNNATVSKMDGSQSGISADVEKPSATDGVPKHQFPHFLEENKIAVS
# Technique: universal PBM
# Form: double-stranded DNA, one strand shown
# Sample: in vitro
# Concentration: 600 nM
# Setting: 8-mer, flanks averaged, mean of replicates
# Direction: higher = stronger binding
Oligonucleotide,E-score
GGACCTAA,-0.0518
AGTAGCCC,-0.18
GAAAACAA,0.224
CCTTAATC,0.0628
CTGTCGAC,-0.108
CCTGCTGC,-0.201
GTGGTCGA,-0.2
CTCTTACA,0.156
TCAATCGA,0.113
GTAGCGGA,0.0511
AGAACTCA,0.0727
AACCTCGC,-0.139
CCTTCCTC,-0.179
CGCGTGGC,-0.234
GGCAATTA,0.228
AGGACGTA,-0.121
ATTTTAAG,0.282
AGTAAACC,-0.0343
GAAAGCCA,-0.208
CAGGCGCG,-0.377
GTTAAAAC,0.144
AGTATTGC,0.119
TTAGAGAA,0.0937
CTCCAAAG,-0.025
GGATCCGA,-0.242

# Sample 4
# Target: RNA binding protein fox-1 homolog 2, RRM domain, GST-SBP tag (RBFOX2, Homo sapiens, UniProt O43251-10, residues 100-194)
# Technique: RNA Bind-n-Seq
# Form: RNA
# Sample: in vitro
# Concentration: 365 nM
# Setting: natural RNA segment, single round, ends assumed
# Baseline: no-protein control
# Direction: higher = stronger binding
# All sequences stand within: GGGAGUUCUACAGUCCGACGAUC … UGGAAUUCUCGGGUGCCAA
# Construct (chain): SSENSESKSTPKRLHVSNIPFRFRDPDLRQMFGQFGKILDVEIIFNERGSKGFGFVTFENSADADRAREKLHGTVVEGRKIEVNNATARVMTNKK
Oligonucleotide,RBNS enrichment (R)
UAUUACAAAGUCAAUUAAAACUUUUCAUUCAAGGUUUUUGAGCCAAACUAGAAGUUGAGAUUGUAAAACUGCUUUAAGAACUUUAAAGAAAUGAAUAUUUGAUCUCUGAU,0.911
CUUUUUUUUUUUUUUUCAUCGAAGGCCUAAAAUGAUCGCGAUUCGAAAAAACAACGAGAAAAUGACGUCGCUCCAUUUCAACCCCACUCCUACCCCUUUCCUCACCCCCA,0.456
UGCAACACAUUUGUCACCAGGCUUUGAAGGUGACAGCCUGACAAUGUGUUGGAGACACUUCUGAAGGGCAAGUGAACAGACAUACUGUGAAGUGGCUCAACAGGAGGAGC,3.55
UGCAGCCAUUGCUAUUGCAAUUCAUUUAAUAAAGCUUUAGUUUAAAAACCAAGCAUUGUGUACAGGAGCUAGGGCAGCGCAGGAGGCCCUUUCAGUUGGAGAGGCAGGUU,0.675
UGCACCUGUGGACAGUGGGUGGGGCACUACUCCCCACUCAGAGCACAAAUGCAACCCCUCCCCUACAAAUCCCAUCCUGAGCCAUUGCAGGGGUAGGGAAGCUCACCCCU,0.333
UUACUGGAAGCUUAAAAUUUGCUUCUCAGUUGGCCUUUAGAGCAAGAGUGGAAUAGCUGUUUUAUUCUUAGGUUGUAGAAUGCCUUGUAGUGCUUCAUAUACUUUGGGGA,0.489
AGGAAAUGGAAUUGGUCAGGAUAGAUGGUGUGAAACUGAUAAGAGGUUUUGGAUGUGAAAAAGAGUUUCCAAAAGAAUGGUGUCUGGGAGUUUGAAUGUGAUGAUUAAAA,11.3
GUCUCCAGGGUAGGAGUGUUUUUCUAGCAAGAAUCUUAGUCAGGAGUAAGCUCUGUGCGAGAGAUCUGUGAAUAACCAGAUAACCCCAGCUGCCGUUAACCUUUUCACCA,0.432
AUUGUACUUGAAACACCUCCUUUGCAUUUCUCCAUUUGUGCCAUUCACUAGUGGAAAUAAAUUGUAUUAUACCAUGAUCUACUGGCUUUUUAAAACUGUAUUAAAUAUGC,0.412
UGUCAACACAAAGACAUGGAAGAUUAGAGGUUUGUCAACACAAAGACACAGGAAGAAUGGGCUGCAGAAGAUUUAGAUGUUUUCCAUUUGGGCACAUUUUACUUAGCUGG,0.328
AAUAUGGCUGGAUAAUAAACACUCCUGGGUAGAGGAGGCCAGGAGCCUCACUGUCCCAAUUCCCAAAUUUUUCUUACAGAGAUUCAGGGCCUUCAAGAGUCUUCUUAAUG,0.374
AAACCUGGAGUCCUUAUCCUCCCCUCUGUAAGUGUUUUAGGGUCUGGCUUUUGCAGGCACCCUCUGACCUCAGCAGAGCUCCUGGGCCUGCUGCCUGCACACCACAUCGC,0.604

# Sample 5
# Target: Centromere-binding protein 1, full length, N-terminal tag (CBF1, Saccharomyces cerevisiae, UniProt P17106, residues 1-351)
# Sequence of UniProt P17106 (whole entry, looked up): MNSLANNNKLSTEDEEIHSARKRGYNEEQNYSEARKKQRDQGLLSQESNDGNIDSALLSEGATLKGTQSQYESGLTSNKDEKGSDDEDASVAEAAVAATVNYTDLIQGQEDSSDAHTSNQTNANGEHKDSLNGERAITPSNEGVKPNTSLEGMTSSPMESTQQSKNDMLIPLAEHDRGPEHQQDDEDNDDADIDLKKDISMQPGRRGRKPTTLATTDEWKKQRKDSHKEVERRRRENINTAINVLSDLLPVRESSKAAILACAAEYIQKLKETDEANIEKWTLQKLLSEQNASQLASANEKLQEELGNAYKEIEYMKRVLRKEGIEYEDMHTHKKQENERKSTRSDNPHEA
# Technique: protein-binding microarray
# Form: double-stranded DNA, one strand shown
# Sample: in vitro
# Concentration: 0.8 µM
# Setting: whole 60-bp probe, no competitor
# Direction: higher = stronger binding
# All sequences stand within: … GTCTTGATTCGCTTGACGCTGCTG
Oligonucleotide,fluorescence intensity
GAAGATTGCATACATGATGTTATCGAGGCGTATTAG,532 a.u.
GAAAATGTTTTGCATCACATGACCATGTTCGAGTAG,8960 a.u.
GAATACAGGCTAAGTGGTGTCACTATCCCCATTTAG,522 a.u.
CTAATTTGATCATTGTACGTGATGAATCCATGTTTC,628 a.u.
CCTAACTACTATAGCTACCACATATAGCTTCGTACA,522 a.u.
GAAATTTCTTCCCCTCTCGTGATTTCTAGATAATAG,958 a.u.
CTAACAAAAGCAGATCTCCTGTTCATATACCATTTC,514 a.u.
GAAGGGTATGCGTTTCATGTGCGTGGGGAAAGTTAG,559 a.u.
TGTACGAAGCTATTTCTCGTGGATATAGTAGTTAGG,564 a.u.
TGTACGAAGCTATAATGTCAGTTTATAGTAGTTAGG,558 a.u.

# Excerpt of the above (sample 1):
Oligonucleotide,log2 enrichment
CAAGUCCUGUGCUACACAUCGUAUGUACCGAAUCAAAUUUAAAUUUAAAUUUAAAAAAGUAUUAUGUUACGCCGUUCGGAUCUGCACUUC,-1.97
ACCAUGCAGGUGGGCAUCUUUGGGAAGUGGGGCAAGGGGGGGAUAGGGAGGGGGGUAACACUUUGGGAACAGGUGUUCCCAGGUCGUUUC,2.19
UCAAGUCCUGUGCUACACAUCGUAUGUACCGAAUCGGUUGGGUUGGGGUUGGGGAAAGUAUUAUGUUACGCCGUUCGGAUCUGCACUUCC,0.549
AAGUCCUGUGCUACACAUCGUAUGUACCGAAUCGGGGCCCGGGGCCCGGGCCCGGGAAAGUAUUAUGUUACGCCGUUCGGAUCUGCACUU,-2.28
CCUGUGCUACACAUCGUAUGUACCGAAUCGGGCCCCCCGGGGCCCCCCGGGGCCCCCCGGAAAGUAUUAUGUUACGCCGUUCGGAUCUGC,-1.92
AAGUCCUGUGCUACACAUCGUAUGUACCGAAUCGGGGCCCGGGGCCCGGCCCGGGGAAAGUAUUAUGUUACGCCGUUCGGAUCUGCACUU,-2.11
